{"data": "Experimental data collected from several papers", "note": "Protocols differ between the studies behind these lines.", "UniProt Q12809, sequence (whole entry, looked up)": "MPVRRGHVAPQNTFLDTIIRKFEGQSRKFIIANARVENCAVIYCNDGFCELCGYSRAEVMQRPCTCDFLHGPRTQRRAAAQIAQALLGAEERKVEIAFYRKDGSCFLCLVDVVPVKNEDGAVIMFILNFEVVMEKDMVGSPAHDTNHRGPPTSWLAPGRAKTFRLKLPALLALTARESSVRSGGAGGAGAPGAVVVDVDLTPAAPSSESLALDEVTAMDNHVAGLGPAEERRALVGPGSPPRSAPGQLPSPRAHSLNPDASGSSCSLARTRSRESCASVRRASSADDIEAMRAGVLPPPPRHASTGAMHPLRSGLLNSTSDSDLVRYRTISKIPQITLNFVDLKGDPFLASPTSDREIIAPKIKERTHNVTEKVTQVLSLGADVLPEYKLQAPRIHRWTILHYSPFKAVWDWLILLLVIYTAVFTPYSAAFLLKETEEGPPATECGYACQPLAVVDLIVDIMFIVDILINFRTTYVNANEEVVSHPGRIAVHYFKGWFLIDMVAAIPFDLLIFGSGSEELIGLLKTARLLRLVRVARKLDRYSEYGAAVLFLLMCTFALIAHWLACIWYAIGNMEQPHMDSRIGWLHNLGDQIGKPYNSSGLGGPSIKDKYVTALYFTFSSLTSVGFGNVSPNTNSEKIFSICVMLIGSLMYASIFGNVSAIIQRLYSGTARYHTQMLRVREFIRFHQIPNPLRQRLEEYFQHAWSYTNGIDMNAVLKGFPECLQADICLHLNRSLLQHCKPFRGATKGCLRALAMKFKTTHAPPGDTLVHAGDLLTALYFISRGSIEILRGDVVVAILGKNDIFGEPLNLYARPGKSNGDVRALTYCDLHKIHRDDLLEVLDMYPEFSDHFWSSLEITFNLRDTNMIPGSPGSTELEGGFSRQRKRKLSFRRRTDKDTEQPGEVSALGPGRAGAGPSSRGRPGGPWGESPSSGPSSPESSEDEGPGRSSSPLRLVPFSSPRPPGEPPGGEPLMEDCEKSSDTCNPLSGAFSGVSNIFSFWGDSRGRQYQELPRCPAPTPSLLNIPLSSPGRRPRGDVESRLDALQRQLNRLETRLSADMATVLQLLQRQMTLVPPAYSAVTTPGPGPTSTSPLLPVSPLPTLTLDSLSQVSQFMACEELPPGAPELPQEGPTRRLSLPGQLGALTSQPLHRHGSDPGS"}
{"SMILES": "CCCCn1ccn2c(-c3ccc(Oc4ccnc(C)c4)c(F)c3)c(C)nc2c1=O", "system": "Sprague Dawley rat male, brain", "setting": "oral, 10 mg/kg, 2 h", "endpoint": "brain concentration", "result": "343 ng/g"}
{"SMILES": "CC(C)C[C@H](NC(=O)OCc1ccccc1)C(=O)N[C@@H](C[C@@H]1CCNC1=O)C(O)S(=O)(=O)O (stereo partly drawn)", "tested on": "CRFK", "assay": "cell growth or viability", "setting": "36 h", "endpoint": "CC50", "result": "> 150 µM"}
{"SMILES": "CCCCn1ccn2c(-c3ccc4[nH]ccc4c3)c(C)nc2c1=O", "system": "Sprague Dawley rat male, brain", "setting": "oral, 10 mg/kg, 4 h", "endpoint": "brain concentration", "result": "12 ng/g"}
{"SMILES": "CCCCNC(=N)c1ccc(OCCSCCOc2ccc(C(=N)NCCCC)cc2)cc1", "tested on": "KCNH2 (Homo sapiens, UniProt Q12809)", "assay": "inhibitor, Western blot", "system": "HEK293 expressing KCNH2", "setting": "0.5 to 20 µM, 24 h", "endpoint": "protein maturation", "result": "decreased"}
{"SMILES": "CCCCCC(=O)OCn1cc(F)c(=O)[nH]c1=O", "tested on": "Caco-2 without butyric acid induction", "setting": "concentration not given", "how to read": "relative to: butyric acid-induced cells", "endpoint": "uptake", "result": "no effect"}
{"SMILES": "CC(C)C[C@H](NC(=O)OCc1ccccc1)C(=O)N[C@@H](C[C@@H]1CCNC1=O)C(=O)C(=O)NC1CCCCC1", "tested on": "feline coronavirus", "system": "CRFK, FIPV-1146", "how to read": "relative to: CC50 over EC50", "endpoint": "therapeutic index", "result": "> 2140"}
{"SMILES": "CC[C@H](C)[C@@H]1NC(=O)[C@H](C(C)C)NC(=O)[C@H](Cc2ccccc2)NC(=O)[C@H](Cc2ccccc2)NC(=O)[C@@H]2CCCN2C(=O)[C@@H]2CCCN2C(=O)[C@H]([C@@H](C)CC)NC(=O)[C@H](CC(C)C)NC(=O)[C@H](CCSC)NC1=O", "tested on": "SK-BR-3", "assay": "LDH release", "setting": "400 µg/mL, 24 h", "endpoint": "cytotoxicity", "result": "41%"}
{"SMILES": "FC(F)(F)c1c(-c2ccc(NC3CCOCC3)c(Cl)c2)ccn2c(CC3CC3)nnc12", "system": "human liver microsomes", "setting": "5 µM, 15 min", "endpoint": "compound metabolized", "result": "18%"}
{"SMILES": "O=C[C@H](C[C@@H]1CCNC1=O)NC(=O)[C@H](CC1CCCCC1)NS(=O)(=O)c1cccc(Cl)c1", "tested on": "CRFK", "assay": "cell growth or viability", "setting": "36 h", "endpoint": "CC50", "result": "> 150 µM"}
{"SMILES": "COc1ccc(CNc2ccc(-c3ccn4c(CC5CC5)nnc4c3C(F)(F)F)cc2F)cn1", "system": "rat Sprague Dawley male, plasma", "setting": "subcutaneous, 10 mg/kg, 2 h", "endpoint": "plasma concentration", "result": "1350 ng/mL"}
{"SMILES": "O=C[C@H](C[C@@H]1CCNC1=O)NC(=O)[C@H](CC1CCCCC1)NC(=O)OCc1cccc(Cl)c1", "tested on": "CRFK", "assay": "cell growth or viability", "setting": "36 h", "endpoint": "CC50", "result": "116 µM"}
{"SMILES": "CC[C@H](C)[C@@H]1NC(=O)[C@H](CC(C)C)NC(=O)[C@H](Cc2ccccc2)NC(=O)[C@H](Cc2ccccc2)NC(=O)[C@@H]2CCCN2C(=O)[C@@H]2CCCN2C(=O)[C@H](C(C)C)NC(=O)[C@H](CC(C)C)NC(=O)[C@H]([C@@H](C)CC)NC1=O", "tested on": "SK-BR-3", "assay": "LDH release", "setting": "25 µg/mL, 24 h", "endpoint": "cytotoxicity", "result": "9%"}
{"note": "A few entries again:"}
{"SMILES": "CC(C)C[C@H](NC(=O)OCc1ccccc1)C(=O)N[C@@H](C[C@@H]1CCNC1=O)C(=O)C(=O)NC1CCCCC1", "tested on": "feline coronavirus", "system": "CRFK, FIPV-1146", "how to read": "relative to: CC50 over EC50", "endpoint": "therapeutic index", "result": "> 2140"}
{"SMILES": "CC[C@H](C)[C@@H]1NC(=O)[C@H](C(C)C)NC(=O)[C@H](Cc2ccccc2)NC(=O)[C@H](Cc2ccccc2)NC(=O)[C@@H]2CCCN2C(=O)[C@@H]2CCCN2C(=O)[C@H]([C@@H](C)CC)NC(=O)[C@H](CC(C)C)NC(=O)[C@H](CCSC)NC1=O", "tested on": "SK-BR-3", "assay": "LDH release", "setting": "400 µg/mL, 24 h", "endpoint": "cytotoxicity", "result": "41%"}
